Results collected from several papers.
Parts stem from different laboratories: compare values within a part only.
Chain of UniProt Q9NQS5 (whole entry, looked up): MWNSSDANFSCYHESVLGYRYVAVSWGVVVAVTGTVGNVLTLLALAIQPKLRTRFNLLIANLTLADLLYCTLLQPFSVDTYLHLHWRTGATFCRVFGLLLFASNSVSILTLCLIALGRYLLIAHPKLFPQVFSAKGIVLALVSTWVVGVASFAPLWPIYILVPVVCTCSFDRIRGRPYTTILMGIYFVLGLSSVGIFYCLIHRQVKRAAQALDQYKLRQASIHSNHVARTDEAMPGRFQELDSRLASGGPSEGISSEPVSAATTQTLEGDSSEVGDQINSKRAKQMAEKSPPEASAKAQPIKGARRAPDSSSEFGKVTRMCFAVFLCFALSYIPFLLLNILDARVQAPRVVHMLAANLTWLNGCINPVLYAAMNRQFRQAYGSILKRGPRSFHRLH
Chain of UniProt Q13976 (whole entry, looked up): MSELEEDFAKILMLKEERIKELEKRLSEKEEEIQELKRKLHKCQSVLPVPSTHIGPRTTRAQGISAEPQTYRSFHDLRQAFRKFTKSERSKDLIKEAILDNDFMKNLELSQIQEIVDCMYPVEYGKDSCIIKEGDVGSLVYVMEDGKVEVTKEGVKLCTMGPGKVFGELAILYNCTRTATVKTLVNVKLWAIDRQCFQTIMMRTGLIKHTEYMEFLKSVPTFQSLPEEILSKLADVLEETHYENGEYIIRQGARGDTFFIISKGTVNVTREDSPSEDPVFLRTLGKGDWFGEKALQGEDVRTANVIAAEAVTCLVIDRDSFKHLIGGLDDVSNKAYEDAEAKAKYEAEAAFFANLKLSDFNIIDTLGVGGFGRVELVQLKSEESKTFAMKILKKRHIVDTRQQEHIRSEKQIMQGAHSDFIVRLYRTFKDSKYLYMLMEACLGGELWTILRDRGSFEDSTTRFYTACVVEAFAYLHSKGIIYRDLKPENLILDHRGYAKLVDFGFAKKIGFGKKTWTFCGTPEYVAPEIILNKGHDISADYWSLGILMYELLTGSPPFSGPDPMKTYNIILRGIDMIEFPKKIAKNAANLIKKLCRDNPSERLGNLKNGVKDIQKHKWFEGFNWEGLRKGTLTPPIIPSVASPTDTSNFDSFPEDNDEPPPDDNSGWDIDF
Chain of UniProt P51812 (whole entry, looked up): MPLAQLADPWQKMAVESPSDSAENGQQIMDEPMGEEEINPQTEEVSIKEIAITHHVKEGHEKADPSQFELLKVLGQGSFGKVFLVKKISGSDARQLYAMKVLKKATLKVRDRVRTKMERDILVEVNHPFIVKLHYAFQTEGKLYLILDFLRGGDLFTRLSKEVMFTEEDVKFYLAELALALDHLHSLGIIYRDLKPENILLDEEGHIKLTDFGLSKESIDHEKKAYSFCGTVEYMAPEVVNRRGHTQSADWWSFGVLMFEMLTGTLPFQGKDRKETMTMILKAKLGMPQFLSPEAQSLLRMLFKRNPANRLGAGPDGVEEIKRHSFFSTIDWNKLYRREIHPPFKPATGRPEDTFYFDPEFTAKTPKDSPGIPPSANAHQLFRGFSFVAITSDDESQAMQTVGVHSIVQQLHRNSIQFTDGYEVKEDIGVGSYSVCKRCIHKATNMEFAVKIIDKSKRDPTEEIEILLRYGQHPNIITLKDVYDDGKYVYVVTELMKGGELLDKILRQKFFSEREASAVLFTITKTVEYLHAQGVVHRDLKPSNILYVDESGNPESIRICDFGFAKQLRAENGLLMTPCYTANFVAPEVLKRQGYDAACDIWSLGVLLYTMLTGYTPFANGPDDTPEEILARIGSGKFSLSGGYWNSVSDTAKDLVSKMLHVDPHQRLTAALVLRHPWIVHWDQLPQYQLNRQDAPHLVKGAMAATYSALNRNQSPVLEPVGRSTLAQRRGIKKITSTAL
Chain of UniProt Q05655 (whole entry, looked up): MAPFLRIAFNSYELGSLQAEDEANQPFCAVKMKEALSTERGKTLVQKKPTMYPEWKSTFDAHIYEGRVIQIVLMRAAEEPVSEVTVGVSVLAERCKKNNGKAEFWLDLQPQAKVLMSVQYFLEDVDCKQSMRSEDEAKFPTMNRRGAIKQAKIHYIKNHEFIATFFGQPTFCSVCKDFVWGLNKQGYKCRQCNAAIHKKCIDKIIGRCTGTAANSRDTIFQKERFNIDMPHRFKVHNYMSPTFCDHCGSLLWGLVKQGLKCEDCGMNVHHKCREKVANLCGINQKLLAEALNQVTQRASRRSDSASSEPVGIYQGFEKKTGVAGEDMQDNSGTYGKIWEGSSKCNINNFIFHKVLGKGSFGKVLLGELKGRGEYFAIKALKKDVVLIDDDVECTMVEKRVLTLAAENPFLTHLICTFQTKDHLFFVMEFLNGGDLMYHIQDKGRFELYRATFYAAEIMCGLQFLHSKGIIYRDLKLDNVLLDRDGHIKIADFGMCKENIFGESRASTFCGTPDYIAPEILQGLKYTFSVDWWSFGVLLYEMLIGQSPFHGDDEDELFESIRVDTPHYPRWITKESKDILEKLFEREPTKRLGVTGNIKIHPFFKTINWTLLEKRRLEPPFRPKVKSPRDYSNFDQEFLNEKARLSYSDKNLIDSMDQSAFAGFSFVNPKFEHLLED
Chain of UniProt Q96LB2 (whole entry, looked up): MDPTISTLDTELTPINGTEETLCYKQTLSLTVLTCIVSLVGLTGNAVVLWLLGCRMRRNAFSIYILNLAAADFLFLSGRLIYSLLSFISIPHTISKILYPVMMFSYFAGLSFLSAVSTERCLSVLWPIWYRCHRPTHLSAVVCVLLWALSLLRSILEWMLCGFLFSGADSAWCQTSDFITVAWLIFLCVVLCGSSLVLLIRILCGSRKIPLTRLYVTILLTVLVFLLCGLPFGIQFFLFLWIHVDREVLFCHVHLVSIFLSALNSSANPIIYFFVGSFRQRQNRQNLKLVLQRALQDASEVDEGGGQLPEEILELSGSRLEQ
Chain of UniProt Q9HAZ1 (whole entry, looked up): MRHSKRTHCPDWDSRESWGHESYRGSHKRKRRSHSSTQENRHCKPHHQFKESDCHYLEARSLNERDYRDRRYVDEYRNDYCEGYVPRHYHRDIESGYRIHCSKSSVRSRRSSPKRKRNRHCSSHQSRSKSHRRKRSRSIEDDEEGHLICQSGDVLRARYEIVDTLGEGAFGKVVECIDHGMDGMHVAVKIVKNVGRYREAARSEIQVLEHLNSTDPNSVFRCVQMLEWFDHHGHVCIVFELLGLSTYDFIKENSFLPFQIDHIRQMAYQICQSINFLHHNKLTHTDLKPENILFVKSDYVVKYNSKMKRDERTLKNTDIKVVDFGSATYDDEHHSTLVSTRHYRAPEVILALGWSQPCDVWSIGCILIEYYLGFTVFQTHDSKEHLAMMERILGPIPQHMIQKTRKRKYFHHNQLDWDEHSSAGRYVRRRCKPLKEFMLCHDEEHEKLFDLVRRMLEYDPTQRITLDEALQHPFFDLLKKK
Chain of UniProt Q9BZJ6 (whole entry, looked up): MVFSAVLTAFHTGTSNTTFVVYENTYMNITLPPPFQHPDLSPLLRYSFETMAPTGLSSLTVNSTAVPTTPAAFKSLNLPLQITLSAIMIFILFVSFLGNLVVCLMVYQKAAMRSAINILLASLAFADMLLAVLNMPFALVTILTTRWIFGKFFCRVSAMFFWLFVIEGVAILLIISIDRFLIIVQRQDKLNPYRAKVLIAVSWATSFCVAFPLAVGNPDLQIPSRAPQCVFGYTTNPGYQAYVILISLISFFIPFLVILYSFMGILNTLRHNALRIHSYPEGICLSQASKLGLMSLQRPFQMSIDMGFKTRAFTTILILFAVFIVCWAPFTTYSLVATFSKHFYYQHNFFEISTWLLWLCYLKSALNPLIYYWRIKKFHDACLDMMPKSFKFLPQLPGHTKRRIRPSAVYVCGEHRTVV
Chain of UniProt Q8N6U8 (whole entry, looked up): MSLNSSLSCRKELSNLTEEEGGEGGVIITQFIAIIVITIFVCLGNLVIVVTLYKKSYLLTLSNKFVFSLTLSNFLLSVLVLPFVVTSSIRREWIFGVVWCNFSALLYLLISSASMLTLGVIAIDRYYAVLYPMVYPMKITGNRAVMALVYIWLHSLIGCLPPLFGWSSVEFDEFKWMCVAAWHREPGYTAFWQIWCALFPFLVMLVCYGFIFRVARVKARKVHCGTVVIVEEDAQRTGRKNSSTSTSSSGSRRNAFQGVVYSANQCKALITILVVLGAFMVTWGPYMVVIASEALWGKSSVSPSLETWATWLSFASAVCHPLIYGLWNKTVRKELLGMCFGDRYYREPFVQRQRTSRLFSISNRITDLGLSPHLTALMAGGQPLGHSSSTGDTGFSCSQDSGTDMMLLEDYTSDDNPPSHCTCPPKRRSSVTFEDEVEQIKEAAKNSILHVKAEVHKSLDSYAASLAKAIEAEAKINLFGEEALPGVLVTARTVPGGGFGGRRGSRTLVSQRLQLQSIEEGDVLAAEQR

Study 1 — action: inhibitor; tested at: 10 µM; reference: control; measurement: remaining activity
Target: Diamine acetyltransferase 1 (Homo sapiens, UniProt P21673)
Construct (P21673 1-171): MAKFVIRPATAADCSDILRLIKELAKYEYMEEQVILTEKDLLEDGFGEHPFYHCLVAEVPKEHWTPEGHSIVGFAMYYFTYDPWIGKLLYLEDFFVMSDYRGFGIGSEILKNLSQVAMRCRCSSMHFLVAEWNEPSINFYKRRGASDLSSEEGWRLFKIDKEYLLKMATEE
C[C@@H]1O[C@@H](O[C@H]2[C@H](OC(=O)[C@]34CCC(C)(C)C[C@H]3C3=CC[C@@H]5[C@@]6(C)C[C@H](O)[C@H](O[C@@H]7O[C@H](CO)[C@@H](O)[C@H](O[C@@H]8O[C@H](CO)[C@@H](O)[C@H](O)[C@H]8O)[C@H]7O)C(CO)(CO)[C@@H]6CC[C@@]5(C)[C@]3(C)C[C@H]4O)OC[C@H](O)[C@@H]2O)[C@H](O)[C@H](O)[C@H]1O[C@@H]1OC[C@@H](O)[C@H](O[C@@H]2OC[C@](O)(CO)[C@H]2O)[C@H]1O: 99.5%
COc1cc(-c2cc(=O)c3c(O)cc(O)cc3o2)ccc1O: 78.5%
C=CCc1ccc(O)c(OC)c1: 95.9%
CC(=O)O[C@H]1C[C@H]2CC[C@]1(C)C2(C)C: 83.4%
COc1c(O)cc(O)c2c(=O)cc(-c3ccccc3)oc12: 102%
C[C@]12CC[C@@H]3c4ccc(O)cc4CC[C@H]3[C@@H]1C[C@@H](O)[C@@H]2O: 105%
O=C1O[C@H]([C@@H](O)CO)C(O)=C1O: 100%
CC(C)=CCc1cc([C@@H]2CC(=O)c3ccc(O)c(CC=C(C)C)c3O2)ccc1O: 123%
O=C(O)CC(O)(CC(=O)O)C(=O)O: 87.5%
O=c1c2ccccc2nc2n1CCc1c-2[nH]c2ccccc12: 104%
O=C1c2c(O)cc(O)cc2O[C@H](c2ccc(O)cc2)[C@@H]1[C@@H]1C(=O)c2c(O)cc(O)cc2O[C@H]1c1ccc(O)cc1: 102%
O=C(O[C@@H]1Cc2c(O)cc(O)cc2O[C@@H]1c1ccc(O)c(O)c1)c1cc(O)c(O)c(O)c1: 76.7%
CCCCCCCCCCCCCCCCCCCCCCCCCCO: 77.5%
CC(=O)OC[C@H]1O[C@@H](Oc2ccc(CO)cc2)[C@H](OC(C)=O)[C@@H](OC(C)=O)[C@@H]1OC(C)=O: 68.7%
COc1ccc(-c2oc3cc(OC)c(OC)c(O)c3c(=O)c2OC)cc1O: 100%
COC(=O)C1=CO[C@@H](O[C@@H]2O[C@H](CO)[C@@H](O)[C@H](O)[C@H]2O)[C@@H]2[C@@H](C)[C@@H](O)C[C@H]12: 105%
O=c1c(O[C@@H]2O[C@H](CO)[C@@H](O)[C@H](O)[C@H]2O)c(-c2ccc(O)c(O)c2)oc2cc(O)cc(O)c12: 94.7%
CCCCCCCC(=O)OC: 82.8%

Study 2 — effect on: enzyme activity; action: inhibitor; tested at: 10 µM; measurement: inhibition
Target: Calcium/calmodulin-dependent protein kinase type II subunit alpha (CAMK2A, Homo sapiens, UniProt Q9UQM7)
Chain of UniProt Q9UQM7 (whole entry, looked up): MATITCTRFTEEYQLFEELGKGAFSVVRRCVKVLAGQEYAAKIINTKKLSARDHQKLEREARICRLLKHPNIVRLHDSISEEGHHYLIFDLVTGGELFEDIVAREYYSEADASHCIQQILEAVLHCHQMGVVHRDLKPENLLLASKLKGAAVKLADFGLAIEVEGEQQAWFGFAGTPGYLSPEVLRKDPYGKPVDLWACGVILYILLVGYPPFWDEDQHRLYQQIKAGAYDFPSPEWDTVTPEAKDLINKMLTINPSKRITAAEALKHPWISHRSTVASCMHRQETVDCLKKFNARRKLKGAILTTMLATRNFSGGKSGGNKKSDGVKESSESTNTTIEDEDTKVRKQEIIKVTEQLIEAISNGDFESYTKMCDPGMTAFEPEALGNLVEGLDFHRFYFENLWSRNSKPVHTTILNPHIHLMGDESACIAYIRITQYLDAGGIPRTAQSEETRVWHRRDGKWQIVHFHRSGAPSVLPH
COc1c(OC)c2occc2c2oc(=O)ccc12: -28%
COc1cc(OC)c2c(=O)cc(-c3ccccc3)oc2c1: 5%
C[C@@H]1O[C@@H](OC[C@H]2O[C@@H](Oc3c(-c4ccc(O)cc4)oc4cc(O)cc(O)c4c3=O)[C@H](O[C@@H]3O[C@H](CO)[C@@H](O)[C@H](O)[C@H]3O)[C@@H](O)[C@@H]2O)[C@H](O)[C@H](O)[C@H]1O: -72%
O=C(O)C(=O)Cc1ccc(O)cc1: -20%
Cc1oncc1C(=O)Nc1ccc(C(F)(F)F)cc1: -3%
CC(C)=CCc1c(O)cc(O)c2c(=O)c(-c3ccc(O)cc3)coc12: -3%
COc1cc2ccc(=O)oc2cc1OC: -11%
C[C@@H]1OC(O)[C@H](O)[C@H](O)[C@H]1O (stereo partly shown): 10%
Cc1ccc2[nH]c3ccccc3c2c1: -11%
C[C@H]1O[C@@H](O[C@H]2CC[C@@]3(C)[C@@H](CC[C@]4(C)[C@@H]3C=CC3=C5CC(C)(C)CC[C@]5(CO)[C@H](O)C[C@]34C)[C@]2(C)CO)[C@H](O)[C@@H](O[C@@H]2O[C@H](CO)[C@@H](O)[C@H](O)[C@H]2O)[C@H]1O: -23%
COc1cc([C@@H]2c3cc4c(cc3[C@@H](O[C@@H]3O[C@@H]5CO[C@@H](c6cccs6)O[C@H]5[C@H](O)[C@H]3O)[C@H]3COC(=O)[C@H]23)OCO4)cc(OC)c1O: -17%
CCCCCC(=O)O[C@H](CC(=O)[O-])C[N+](C)(C)C: -29%
O=C(O)c1cn(-c2ccc(F)cc2)c2cc(N3CCNCC3)c(F)cc2c1=O: -17%

Study 3 — technique: competition with immobilised ligand; tested at: 1 µM; measurement: remaining binding
Compound: Cc1c(NC(=O)c2cc(C(N)=O)nc3cc(F)ccc23)c(C(F)(F)F)nn1Cc1ccc(C#N)cc1
Phosphatidylinositol 4,5-bisphosphate 3-kinase catalytic subunit delta isoform (PIK3CD, Homo sapiens, UniProt O00329); cell-free assay: 66%
Tyrosine-protein kinase ABL1, phosphorylated (ABL1, Homo sapiens, UniProt P00519, Q252H); cell-free assay: 81%
Fibroblast growth factor receptor 4 (FGFR4, Homo sapiens, UniProt P22455); cell-free assay: 100%
Citron Rho-interacting kinase (CIT, Homo sapiens, UniProt O14578); cell-free assay: 81%
Serine/threonine-protein kinase ICK (CILK1, Homo sapiens, UniProt Q9UPZ9); binding: 100%
Fibroblast growth factor receptor 2 (FGFR2, Homo sapiens, UniProt P21802); cell-free assay: 88%
Uncharacterized serine/threonine-protein kinase SBK3 (SBK3, Homo sapiens, UniProt P0C264); cell-free assay: 100%
RAF proto-oncogene serine/threonine-protein kinase (RAF1, Homo sapiens, UniProt P04049); cell-free assay: 86%
Ribosomal protein S6 kinase alpha-3, N-terminal kinase domain (RPS6KA3, Homo sapiens, UniProt P51812); cell-free assay: 82%
Non-receptor tyrosine-protein kinase TNK1 (TNK1, Homo sapiens, UniProt Q13470); cell-free assay: 81%
Cytoplasmic tyrosine-protein kinase BMX (BMX, Homo sapiens, UniProt P51813); cell-free assay: 85%
BDNF/NT-3 growth factors receptor (NTRK2, Homo sapiens, UniProt Q16620); cell-free assay: 54%
SNF-related serine/threonine-protein kinase (SNRK, Homo sapiens, UniProt Q9NRH2); cell-free assay: 90%
Hepatocyte growth factor receptor (MET, Homo sapiens, UniProt P08581); cell-free assay: 100%
TRAF2 and NCK-interacting protein kinase (TNIK, Homo sapiens, UniProt Q9UKE5); cell-free assay: 92%
Mast/stem cell growth factor receptor Kit (KIT, Homo sapiens, UniProt P10721, V559D/V654A); cell-free assay: 58%
Tyrosine-protein kinase ABL1, non-phosphorylated (ABL1, Homo sapiens, UniProt P00519, H396P); cell-free assay: 100%
Dual specificity protein kinase CLK4 (CLK4, Homo sapiens, UniProt Q9HAZ1); cell-free assay: 87%
Epidermal growth factor receptor (EGFR, Homo sapiens, UniProt P00533, G719S); cell-free assay: 86%
Protein kinase C delta type (PRKCD, Homo sapiens, UniProt Q05655); cell-free assay: 95%
Epidermal growth factor receptor (EGFR, Homo sapiens, UniProt P00533, L861Q); cell-free assay: 67%
cGMP-dependent protein kinase 1 (PRKG1, Homo sapiens, UniProt Q13976); cell-free assay: 100%
Receptor tyrosine-protein kinase erbB-3 (ERBB3, Homo sapiens, UniProt P21860); cell-free assay: 92%
Tyrosine-protein kinase Srms (SRMS, Homo sapiens, UniProt Q9H3Y6); cell-free assay: 62%
Epithelial discoidin domain-containing receptor 1 (DDR1, Homo sapiens, UniProt Q08345); cell-free assay: 1.5%

Study 4 — SMILES: CC(C)CN(C)c1nc(N)c(C(=O)N=C(N)N)nc1Cl; effect on: β-arrestin recruitment; action: agonist; technique: PRESTO-Tango; tested at: 10 µM; reference: untreated; measurement: fold over basal
G-protein coupled receptor 161 (GPR161, Homo sapiens, UniProt Q8N6U8): 0.96
Growth hormone-releasing hormone receptor (GHRHR, Homo sapiens, UniProt Q02643): 0.6 fold
Neuromedin-U receptor 1 (NMUR1, Homo sapiens, UniProt Q9HB89): 0.93
Relaxin-3 receptor 1 (RXFP3, Homo sapiens, UniProt Q9NSD7): 1.24
G-protein coupled receptor family C group 5 member D (GPRC5D, Homo sapiens, UniProt Q9NZD1): 0.66
G-protein coupled receptor 84 (GPR84, Homo sapiens, UniProt Q9NQS5): 1.3
C5a anaphylatoxin chemotactic receptor 2 (C5AR2, Homo sapiens, UniProt Q9P296): 0.95
Mas-related G-protein coupled receptor member X1 (MRGPRX1, Homo sapiens, UniProt Q96LB2): 1.11
Proto-oncogene Mas (Homo sapiens, UniProt P04201): 1.24
Probable G-protein coupled receptor 63 (GPR63, Homo sapiens, UniProt Q9BZJ6): 0.76
Adrenocorticotropic hormone receptor (MC2R, Homo sapiens, UniProt Q01718): 1.2

Some of these lines once more (study 1):
O=C1c2c(O)cc(O)cc2O[C@H](c2ccc(O)cc2)[C@@H]1[C@@H]1C(=O)c2c(O)cc(O)cc2O[C@H]1c1ccc(O)cc1: 102%
CC(=O)O[C@H]1C[C@H]2CC[C@]1(C)C2(C)C: 83.4%
COc1ccc(-c2oc3cc(OC)c(OC)c(O)c3c(=O)c2OC)cc1O: 100%
CC(=O)OC[C@H]1O[C@@H](Oc2ccc(CO)cc2)[C@H](OC(C)=O)[C@@H](OC(C)=O)[C@@H]1OC(C)=O: 68.7%
O=C(O[C@@H]1Cc2c(O)cc(O)cc2O[C@@H]1c1ccc(O)c(O)c1)c1cc(O)c(O)c(O)c1: 76.7%
C=CCc1ccc(O)c(OC)c1: 95.9%
O=c1c(O[C@@H]2O[C@H](CO)[C@@H](O)[C@H](O)[C@H]2O)c(-c2ccc(O)c(O)c2)oc2cc(O)cc(O)c12: 94.7%
C[C@]12CC[C@@H]3c4ccc(O)cc4CC[C@H]3[C@@H]1C[C@@H](O)[C@@H]2O: 105%
O=c1c2ccccc2nc2n1CCc1c-2[nH]c2ccccc12: 104%
CCCCCCCCCCCCCCCCCCCCCCCCCCO: 77.5%
